{"data": "Measured values pooled from the literature", "note": "Each numbered part is a random draw from the data of one study; scales do not carry over between parts. Changes are numbered by the printed parent chain."}
{"data": "Study 1", "target": "Histone acetyltransferase KAT6A, both winged helices, GST fusion (KAT6A, Homo sapiens, UniProt Q92794, residues 1-181)", "method": "protein binding microarray", "molecule type": "double-stranded DNA, one strand shown", "sample": "in vitro", "concentration": "not given", "setting": "8-mer, flanks averaged, mean of 2 arrays, mostly near background", "relative to": "not given", "reading": "higher = stronger binding", "Target sequence (chain)": "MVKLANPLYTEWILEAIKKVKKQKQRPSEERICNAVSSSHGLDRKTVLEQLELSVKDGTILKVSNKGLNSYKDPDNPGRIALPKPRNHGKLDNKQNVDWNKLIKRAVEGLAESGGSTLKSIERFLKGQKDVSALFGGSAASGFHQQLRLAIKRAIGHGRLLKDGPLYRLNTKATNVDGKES"}
{"Strand": "ATGGCCAA", "E-score": -0.165}
{"Strand": "ACCCCAGT", "E-score": -0.291}
{"Strand": "CTAGCAAG", "E-score": -0.21}
{"Strand": "GGGCCGAC", "E-score": 0.136}
{"Strand": "GTACGTCA", "E-score": -0.0782}
{"Strand": "CGCTCCCC", "E-score": 0.127}
{"Strand": "CTGACCAA", "E-score": -0.0788}
{"Strand": "CTCGTATC", "E-score": -0.12}
{"Strand": "GAAGGCGA", "E-score": 0.0948}
{"Strand": "AAATAGAA", "E-score": -0.00193}
{"Strand": "AGTAAGTC", "E-score": -0.0619}
{"Strand": "TCAGTCAA", "E-score": -0.0939}
{"Strand": "TCAGACGA", "E-score": -0.179}
{"Strand": "CTAGGGTA", "E-score": -0.0981}
{"Strand": "AACGAGAC", "E-score": 0.0593}
{"Strand": "CGAGCTCA", "E-score": 0.126}
{"Strand": "AGAGTTTC", "E-score": -0.153}
{"Strand": "AGTTGACG", "E-score": 0.057}
{"Strand": "ATGATTTC", "E-score": -0.0301}
{"Strand": "ACTCATCG", "E-score": 0.0718}
{"Strand": "CTTGCAGA", "E-score": -0.0021}
{"Strand": "ATGGAATA", "E-score": -0.0924}
{"Strand": "ACAAGCGA", "E-score": 0.0032}
{"Strand": "ACTGTCCC", "E-score": -0.0605}
{"data": "Study 2", "target": "CREBL2, bZIP domain (human)", "method": "DHFR protein complementation", "sample": "yeast", "setting": "single substitutions, most at no-binding floor", "relative to": "wild-type JUN-FOS pair", "reading": "higher = stronger binding", "starting sequence": "JUN, bZIP domain (human); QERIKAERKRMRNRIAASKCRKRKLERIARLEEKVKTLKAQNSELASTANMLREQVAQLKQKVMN; partner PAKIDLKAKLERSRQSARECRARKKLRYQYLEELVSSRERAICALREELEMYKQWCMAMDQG"}
{"Change": "K34V", "binding fitness": "-1.51 natural log"}
{"Change": "N42E", "binding fitness": "-1.39 natural log"}
{"Change": "E44S", "binding fitness": "-1.53 natural log"}
{"Change": "Q55M", "binding fitness": "-1.32 natural log"}
{"Change": "Q41F", "binding fitness": "-1.45 natural log"}
{"Change": "M51E", "binding fitness": "-1.52 natural log"}
{"Change": "T48Q", "binding fitness": "-1.24 natural log"}
{"Change": "K36R", "binding fitness": "-1.42 natural log"}
{"Change": "T37E", "binding fitness": "-1.48 natural log"}
{"Change": "M51N", "binding fitness": "-1.23 natural log"}
{"Change": "S43T", "binding fitness": "-1.53 natural log"}
{"Change": "E33D", "binding fitness": "-1.55 natural log"}
{"Change": "L52D", "binding fitness": "-1.59 natural log"}
{"Change": "A49L", "binding fitness": "-1.39 natural log"}
{"Change": "N42T", "binding fitness": "-1.56 natural log"}
{"Change": "S43P", "binding fitness": "-1.55 natural log"}
{"Change": "Q55C", "binding fitness": "-1.39 natural log"}
{"Change": "Q41M", "binding fitness": "-1.54 natural log"}
{"Change": "V35M", "binding fitness": "-1.57 natural log"}
{"Change": "S43D", "binding fitness": "-1.4 natural log"}
{"Change": "E32L", "binding fitness": "-1.41 natural log"}
{"data": "Study 3", "target": "Phosphate system positive regulatory protein PHO4, full length, GST-tagged (PHO4, Saccharomyces cerevisiae, UniProt P07270, residues 1-312)", "method": "competition protein-binding microarray", "molecule type": "double-stranded DNA, one strand shown", "sample": "in vitro", "concentration": "2 µM", "setting": "whole 60-bp probe, lowest competitor level", "added": "Cbf1 competitor, 0.05 µM", "reading": "higher = stronger binding", "shared flanks, not repeated": "… GTCTTGATTCGCTTGACGCTGCTG", "UniProt P07270, sequence (whole entry, looked up)": "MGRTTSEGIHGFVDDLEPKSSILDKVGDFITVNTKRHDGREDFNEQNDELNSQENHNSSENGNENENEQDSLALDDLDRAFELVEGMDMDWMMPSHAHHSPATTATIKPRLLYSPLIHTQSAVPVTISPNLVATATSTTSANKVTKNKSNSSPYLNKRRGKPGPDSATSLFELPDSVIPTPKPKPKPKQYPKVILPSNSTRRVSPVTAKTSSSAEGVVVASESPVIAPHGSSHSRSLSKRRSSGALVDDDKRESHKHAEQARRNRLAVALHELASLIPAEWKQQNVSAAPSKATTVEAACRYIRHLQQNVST"}
{"Strand": "GGTTGGCTCTGGTAACGCATGACAGGGTATGAAAAA", "fluorescence intensity [a.u.]": 6120}
{"Strand": "CGTCCTAGTGATTGTCCCGTGGGTGCCATGAGGAAG", "fluorescence intensity [a.u.]": 10700}
{"Strand": "TGAAAAGATGAATCGCACGTGAACCATATTATAATC", "fluorescence intensity [a.u.]": 13700}
{"Strand": "CTTCTGTAAATTTGCCCCGTGGGTGGACGCGCCCCG", "fluorescence intensity [a.u.]": 10300}
{"Strand": "CGGGGTTAAGTTTGGTCCGTGGGTGGCTTGCAGCAG", "fluorescence intensity [a.u.]": 6590}
{"Strand": "AAATTACTAAGTTTTCACGTGGGTTACCCCGTATGA", "fluorescence intensity [a.u.]": 15600}
{"Strand": "AAAGCGGTAATTTGTCACACGACTTCACATATCTAT", "fluorescence intensity [a.u.]": 5710}
{"Strand": "AAAGCGGTAATTTGATCGGTGGGTGCAGATATCTAT", "fluorescence intensity [a.u.]": 3830}
{"Strand": "CGGGGTTAAGTTTGAATAGTGGGTGGCTTGCAGCAG", "fluorescence intensity [a.u.]": 4380}
{"Strand": "CGTCCTAGTGATTGTCCTGTGGGTGCCATGAGGAAG", "fluorescence intensity [a.u.]": 6970}
{"Strand": "TAACTAATCAAATGTATCGTGACGGGGTGTTGCATC", "fluorescence intensity [a.u.]": 5710}
{"Strand": "GTCTTGTCTCATTGCTTCGTGGGTGTCCCCACTTCA", "fluorescence intensity [a.u.]": 7470}
{"Strand": "TAATGCGCTTGCATGTATGTGCGTACATGTATGTGT", "fluorescence intensity [a.u.]": 7820}
{"Strand": "GTAGTCCTGAGCCAACGCATGCCGGTTTTGTTGGTG", "fluorescence intensity [a.u.]": 8190}
{"Strand": "CTAACGAAGGTTTGTGCGGTGGGTGACAAGCCAAGT", "fluorescence intensity [a.u.]": 4740}
{"Strand": "AAAGCGGTAATTTGGTCCGTGGGTGCAGATATCTAT", "fluorescence intensity [a.u.]": 7140}
{"data": "Study 4", "target": "Fragile X messenger ribonucleoprotein 1, C-terminal low-complexity region (Fmr1, Mus musculus, UniProt P35922)", "method": "RNA Bind-n-Seq", "molecule type": "RNA", "sample": "in vitro", "concentration": "200 nM", "setting": "whole 134-nt RNA, ends assumed", "added": "150 mM LiCl", "relative to": "input library", "reading": "higher = stronger binding", "all molecules": "7-deaza-guanosine replaces G", "shared flanks, not repeated": "GGGAGUUCUACAGUCCGACGAUC … UGGAAUUCUCGGGUGUCAAGG"}
{"Strand": "UGUGCUACACAUCGUAUGUACCGAAUCGGGGAAAAAAAGGGGUUUUUUUGGGGAAAAAGGGGAAAGUAUUAUGUUACGCCGUUCGGAUCU", "log2 enrichment": -1.64}
{"Strand": "GUCCUGUGCUACACAUCGUAUGUACCGAAUCGGGUUUUUGGGUUUUUGGUUUUUGGGGAAAGUAUUAUGUUACGCCGUUCGGAUCUGCAC", "log2 enrichment": -1.49}
{"Strand": "GUCCUGUGCUACACAUCGUAUGUACCGAAUCGGUUUUUGGGUUUUUGGGGUUUUUGGGGAAAGUAUUAUGUUACGCCGUUCGGAUCUGCA", "log2 enrichment": -0.855}
{"Strand": "UAGGGUUCAGGAUAAGUUUGAGGUGCUGAAUUACACAAGCAUUCCUAUCUUUCUCCCGGAAGUCACCAUUGGAGCUCAUCAGACUGACCG", "log2 enrichment": -0.946}
{"Strand": "CACAGACAACACGCACCCACACAGACACAGAGGGAAAAAGUUGGGAUGGGGACAGGGUGCACAGCAGGGCGGGGUAGGACCCCAGCCCCU", "log2 enrichment": -1.36}
{"Strand": "CCUCAAGUCCUGUGCUACACAUCGUAUGUACCGAAUCGGGGCGGGCGGGCGGAAAGUAUUAUGUUACGCCGUUCGGAUCUGCACUUCCAG", "log2 enrichment": -0.898}
{"Strand": "UGGGAGGUGGAUUUUGUUUAUUUUUUUAGCUCAAUUCCAGGGGUGGGAAUUUUUUUUUAAUAUGUGUCAUGAAUAAAGUUGUUUUUGAAA", "log2 enrichment": 0.628}
{"Strand": "UGGGAGGUGGAUUUUGUUUAUUCUUUUAGCUCAUUUCCAGGGGUGGGAAUUUUUUUUUAAUAUGUGUCAUGAAUAAAGUUGUUUUUGAAA", "log2 enrichment": 0.074}
{"note": "Repeated from above (study 3):"}
{"Strand": "AAAGCGGTAATTTGATCGGTGGGTGCAGATATCTAT", "fluorescence intensity [a.u.]": 3830}
{"Strand": "CGGGGTTAAGTTTGAATAGTGGGTGGCTTGCAGCAG", "fluorescence intensity [a.u.]": 4380}
{"Strand": "CGTCCTAGTGATTGTCCTGTGGGTGCCATGAGGAAG", "fluorescence intensity [a.u.]": 6970}
{"Strand": "TAACTAATCAAATGTATCGTGACGGGGTGTTGCATC", "fluorescence intensity [a.u.]": 5710}
{"Strand": "GTCTTGTCTCATTGCTTCGTGGGTGTCCCCACTTCA", "fluorescence intensity [a.u.]": 7470}
{"Strand": "TAATGCGCTTGCATGTATGTGCGTACATGTATGTGT", "fluorescence intensity [a.u.]": 7820}
